Published values pooled from the literature.
Each numbered part is a random draw from the data of one study; scales do not carry over between parts. Positions count from the first letter of the parent shown.
Sequence of UniProt Q8WTQ7 (whole entry, looked up): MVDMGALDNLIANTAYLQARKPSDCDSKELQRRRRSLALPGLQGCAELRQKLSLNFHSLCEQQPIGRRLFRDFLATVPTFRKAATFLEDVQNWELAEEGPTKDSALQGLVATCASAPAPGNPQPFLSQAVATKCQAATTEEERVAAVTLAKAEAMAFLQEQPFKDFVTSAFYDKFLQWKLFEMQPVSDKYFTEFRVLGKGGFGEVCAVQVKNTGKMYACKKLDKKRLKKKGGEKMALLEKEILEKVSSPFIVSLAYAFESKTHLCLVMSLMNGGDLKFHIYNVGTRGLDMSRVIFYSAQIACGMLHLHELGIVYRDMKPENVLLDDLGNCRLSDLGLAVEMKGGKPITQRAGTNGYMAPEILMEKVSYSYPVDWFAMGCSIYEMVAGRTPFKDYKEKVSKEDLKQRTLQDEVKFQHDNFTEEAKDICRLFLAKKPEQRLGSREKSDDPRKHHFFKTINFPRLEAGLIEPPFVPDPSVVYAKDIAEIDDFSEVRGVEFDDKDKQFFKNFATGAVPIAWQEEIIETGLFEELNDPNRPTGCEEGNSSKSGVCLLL
Sequence of UniProt P30530 (whole entry, looked up): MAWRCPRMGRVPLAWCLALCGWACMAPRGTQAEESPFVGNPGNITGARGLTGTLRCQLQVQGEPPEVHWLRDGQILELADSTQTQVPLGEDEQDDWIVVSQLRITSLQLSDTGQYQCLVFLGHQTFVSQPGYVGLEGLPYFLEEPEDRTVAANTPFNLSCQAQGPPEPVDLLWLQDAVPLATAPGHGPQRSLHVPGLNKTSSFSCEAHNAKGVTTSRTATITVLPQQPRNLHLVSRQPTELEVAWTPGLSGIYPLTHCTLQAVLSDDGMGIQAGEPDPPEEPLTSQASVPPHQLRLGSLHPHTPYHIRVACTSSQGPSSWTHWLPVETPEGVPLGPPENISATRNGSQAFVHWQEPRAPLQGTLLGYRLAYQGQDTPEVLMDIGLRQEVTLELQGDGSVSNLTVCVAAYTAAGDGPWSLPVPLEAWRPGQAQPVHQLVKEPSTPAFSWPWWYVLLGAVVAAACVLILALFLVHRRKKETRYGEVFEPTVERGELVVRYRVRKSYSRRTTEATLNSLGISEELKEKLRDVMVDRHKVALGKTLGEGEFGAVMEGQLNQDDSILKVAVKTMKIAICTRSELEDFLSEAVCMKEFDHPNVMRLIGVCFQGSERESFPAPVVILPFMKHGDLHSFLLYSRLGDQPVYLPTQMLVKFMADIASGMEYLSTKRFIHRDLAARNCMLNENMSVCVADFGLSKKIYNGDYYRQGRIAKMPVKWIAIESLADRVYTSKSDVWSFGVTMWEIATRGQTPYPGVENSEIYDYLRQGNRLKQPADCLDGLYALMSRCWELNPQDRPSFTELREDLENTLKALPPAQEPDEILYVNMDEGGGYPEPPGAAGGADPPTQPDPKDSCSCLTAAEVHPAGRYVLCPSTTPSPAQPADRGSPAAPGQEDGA
Sequence of UniProt P22607 (whole entry, unmodified, looked up): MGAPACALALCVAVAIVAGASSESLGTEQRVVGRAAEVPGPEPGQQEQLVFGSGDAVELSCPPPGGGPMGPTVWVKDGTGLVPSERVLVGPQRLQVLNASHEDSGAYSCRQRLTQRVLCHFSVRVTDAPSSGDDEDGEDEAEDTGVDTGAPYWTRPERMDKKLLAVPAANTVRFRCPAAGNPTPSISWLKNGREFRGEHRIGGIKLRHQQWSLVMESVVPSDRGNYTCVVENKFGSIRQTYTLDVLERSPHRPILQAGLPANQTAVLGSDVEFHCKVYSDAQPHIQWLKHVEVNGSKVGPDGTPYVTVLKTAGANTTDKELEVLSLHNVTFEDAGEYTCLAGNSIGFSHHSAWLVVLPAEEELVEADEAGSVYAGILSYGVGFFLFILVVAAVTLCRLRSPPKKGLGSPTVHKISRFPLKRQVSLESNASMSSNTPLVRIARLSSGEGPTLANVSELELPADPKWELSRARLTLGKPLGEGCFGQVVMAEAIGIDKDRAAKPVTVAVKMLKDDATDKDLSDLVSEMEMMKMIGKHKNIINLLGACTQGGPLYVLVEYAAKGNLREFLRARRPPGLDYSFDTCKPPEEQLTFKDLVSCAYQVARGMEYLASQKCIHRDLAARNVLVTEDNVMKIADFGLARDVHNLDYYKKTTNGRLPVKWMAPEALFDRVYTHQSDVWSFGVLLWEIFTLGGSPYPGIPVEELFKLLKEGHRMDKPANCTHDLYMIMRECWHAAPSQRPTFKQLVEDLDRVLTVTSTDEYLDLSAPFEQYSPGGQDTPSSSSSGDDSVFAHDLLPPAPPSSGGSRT

Study 1
SMILES: CO[C@H]1CC[C@H](CNc2ccc(S(=O)(=O)NC(=O)c3ccc(N4CCN(CC5=C(c6ccc(Cl)cc6)CC(C)(C)CC5)CC4)cc3Oc3cnc4[nH]ccc4c3)cc2[N+](=O)[O-])CC1
Read-out: cell-free assay
Method: competition with immobilised ligand
Concentration: 1 µM
| target | remaining binding |
| --- | --- |
| Fibroblast growth factor receptor 3 (FGFR3, Homo sapiens, UniProt P22607, G697C) | 100% |
| Rhodopsin kinase GRK7 (GRK7, Homo sapiens, UniProt Q8WTQ7) | 100% |
| Tyrosine-protein kinase receptor UFO (AXL, Homo sapiens, UniProt P30530) | 94% |

Study 2
Target: ABI1, truncated, D143A, DHFR fusion (Arabidopsis thaliana, UniProt P49597)
Method: DHFR PCA, dose-response
Sample: yeast
Notes: Hill fit, mean, not affinity
With: (+)-ABA, dose series
Direction: lower = more sensitive
Starting sequence: PYL1, truncated, DHFR fusion (Arabidopsis thaliana, UniProt Q8VZS8); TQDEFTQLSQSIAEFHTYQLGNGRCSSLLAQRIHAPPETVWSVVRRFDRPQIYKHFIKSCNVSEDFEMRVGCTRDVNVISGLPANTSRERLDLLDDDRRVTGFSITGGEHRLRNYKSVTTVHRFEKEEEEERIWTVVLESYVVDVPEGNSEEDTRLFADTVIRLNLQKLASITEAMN
| Substitution | ABA EC50 [µM] |
| --- | --- |
| C25G | 135 |
| C72T | 4.84 |
| D75I | 0.605 |
| H122D | 25 |
| T119F | 360 |
| G23W | 39.2 |
| A30N | 17.1 |
| E129F | 3 |

Study 3
Target: CRIPT, C-terminal peptide
Method: DHFR complementation, deep sequencing
Sample: yeast
Notes: single substitutions, model-inferred values
Reference: wild type
Direction: higher = weaker binding
Starting sequence: ERBIN, PDZ domain 1 (human); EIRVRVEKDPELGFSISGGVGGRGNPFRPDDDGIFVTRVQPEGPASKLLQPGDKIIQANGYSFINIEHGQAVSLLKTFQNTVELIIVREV; partner TKNYKQTSV
| Substitution | binding free energy change |
| --- | --- |
| V20D | 0.348 kcal/mol |
| K76Q | 0.403 kcal/mol |
| D32P | 0.00825 kcal/mol |
| Q40N | 0.0955 kcal/mol |
| L84K | 1.04 kcal/mol |
| P29K | 0.244 kcal/mol |
| R28C | 0.0489 kcal/mol |
| I64A | 0.00327 kcal/mol |

Study 4
Target: Serine/threonine-protein kinase 4 (STK4, Homo sapiens, UniProt Q13043)
Read-out: enzyme activity
Mode: inhibitor
Concentration: 0.5 µM
Reference: control
Residues (Q13043 1-487): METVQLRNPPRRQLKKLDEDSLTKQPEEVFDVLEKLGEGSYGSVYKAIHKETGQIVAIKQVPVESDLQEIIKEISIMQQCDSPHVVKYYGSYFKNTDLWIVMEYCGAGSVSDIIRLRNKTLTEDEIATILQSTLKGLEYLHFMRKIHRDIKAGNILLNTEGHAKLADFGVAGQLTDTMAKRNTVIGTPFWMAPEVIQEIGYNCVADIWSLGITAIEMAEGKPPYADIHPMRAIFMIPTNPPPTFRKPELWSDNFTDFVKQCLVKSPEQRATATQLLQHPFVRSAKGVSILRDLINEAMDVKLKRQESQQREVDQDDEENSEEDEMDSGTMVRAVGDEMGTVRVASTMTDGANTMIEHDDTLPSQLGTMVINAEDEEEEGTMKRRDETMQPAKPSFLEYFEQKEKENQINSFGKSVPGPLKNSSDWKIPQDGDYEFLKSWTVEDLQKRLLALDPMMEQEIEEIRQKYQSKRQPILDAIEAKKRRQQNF
| Structure (SMILES) | remaining activity [%] |
| --- | --- |
| NC(=O)c1cccc(-c2cc(Nc3ccc(OC(F)(F)F)cc3)ncn2)c1 | 88.7 |
| O=C1c2ccccc2-c2nc3nnnn3nc21 | 87.8 |
| C[C@@H](N)[C@H]1CC[C@H](C(=O)Nc2ccncc2)CC1 | 92.4 |
| N#CC(c1ccnc(NCCc2cccnc2)n1)c1nc2ccccc2s1 (stereo not drawn) | 92.2 |
| CNc1cc2c(Nc3cccc(Br)c3)ncnc2cn1 | 95.4 |
| COc1cc2c(N3CCN(C(=O)Nc4ccc(OC(C)C)cc4)CC3)ncnc2cc1OCCCN1CCCCC1 | 96.2 |
| O=Nc1c(-c2c(O)[nH]c3ccccc23)[nH]c2ccccc12 | 18.8 |
| O=C(c1ccccc1)c1ccc(N2CCOCC2)cc1O | 103 |

Some of these lines once more (study 1):
| target | remaining binding |
| --- | --- |
| Fibroblast growth factor receptor 3 (FGFR3, Homo sapiens, UniProt P22607, G697C) | 100% |
| Rhodopsin kinase GRK7 (GRK7, Homo sapiens, UniProt Q8WTQ7) | 100% |
| Tyrosine-protein kinase receptor UFO (AXL, Homo sapiens, UniProt P30530) | 94% |
